Literature values, collected from citations in different studies.
Compare with care: the assays were run in different laboratories. ± marks the error that the study gave.
UniProt Q96BR1, sequence (whole entry, looked up): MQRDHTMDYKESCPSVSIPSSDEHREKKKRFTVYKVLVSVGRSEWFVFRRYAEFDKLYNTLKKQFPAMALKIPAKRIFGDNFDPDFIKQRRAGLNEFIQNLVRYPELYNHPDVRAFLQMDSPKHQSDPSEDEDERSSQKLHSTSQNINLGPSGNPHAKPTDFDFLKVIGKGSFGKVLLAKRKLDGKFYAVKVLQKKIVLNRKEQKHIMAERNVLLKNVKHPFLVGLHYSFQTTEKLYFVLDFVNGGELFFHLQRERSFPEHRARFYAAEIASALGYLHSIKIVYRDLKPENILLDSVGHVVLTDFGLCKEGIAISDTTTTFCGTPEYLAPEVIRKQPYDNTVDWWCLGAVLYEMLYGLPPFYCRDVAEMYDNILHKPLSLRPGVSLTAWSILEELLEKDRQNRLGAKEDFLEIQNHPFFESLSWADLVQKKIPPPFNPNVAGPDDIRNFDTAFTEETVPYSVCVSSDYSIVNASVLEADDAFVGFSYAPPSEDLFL

SMILES | target or system | assay | system | setting | how to read | endpoint | value
CCc1cc2c(cc1CC)CC(NC[C@H](O)c1ccc(O)c3[nH]c(=O)ccc13)C2 |  |  | COPD patients | inhaled, 150 µg once daily, 24 h postdose, dosing day 1 | relative to: baseline | placebo-corrected trough FEV1 change | 110 mL
Cc1ccc(C)c(OCCCC(C)(C)C(=O)O)c1 |  |  | HIV-negative hypertriglyceridemic individuals, plasma | 600 mg once daily, 9 weeks, range over individuals |  | triglyceride change | -34 to 14%
CNC[C@H](O)[C@@H](O)[C@H](O)[C@H](O)CO.O=C([O-])CN1CCN(CC(=O)[O-])CCN(CC(=O)O)CCN(CC(=O)[O-])CC1.[Gd+3] |  |  | saline | 310 K, 1.41 T |  | relaxivity r1 | 3.2 mM⁻¹ s⁻¹
Nc1cccc2c1C(=O)N(C1CCC(=O)NC1=O)C2=O (centres unmarked) |  |  | relapsed refractory multiple myeloma patients | dose not given, historical, single agent |  | 6-month progression-free survival | 20%
O=NN(CCCl)C(=O)NC1CCCCC1 |  |  | patients, recurrent glioblastoma | dose not given, monotherapy |  | objective response rate | 3%
Cc1nc(NC(=O)N2CCC[C@H]2C(N)=O)sc1-c1ccnc(C(C)(C)C(F)(F)F)c1 |  |  | MCF7, mouse, MCF7 orthotopic xenograft | 20 mg/kg once daily, day 62, single agent |  | %T/C | 38%
CCc1cn2c(C3C(C(=O)OC)=C(C)NC(C)=C3C(=O)OC)c(-c3cc(OC)ccc3OC)nc2s1 |  | calcium-induced contraction | guinea pig aortic strip | 50 µM, together with: K+ 80 mM depolarisation |  | inhibition | 29 ± 2.4%
CC1(C)CCC(CN2CCN(c3ccc(C(=O)NS(=O)(=O)c4ccc(NCC5CCOCC5)c([N+](=O)[O-])c4)c(Oc4cnc5[nH]ccc5c4)c3)CC2)=C(c2ccc(Cl)cc2)C1 |  |  | human, newly diagnosed AML | concentration not given, together with: decitabine |  | CR with partial hematologic recovery rate | 7.7%
COC(=O)[C@H](Cc1ccccc1)NC(=O)[C@@H](N)CC(=O)O |  | sensory evaluation | human sensory panel, water |  | relative to: sucrose 5 % w/v | relative sweetness | 2
CCNCCc1ccc(CN(CC)c2cc(OC)ccc2[C@@H]2CCc3cc(O)ccc3C2)cc1 |  |  | human, ER-positive HER2-negative breast cancer, ESR1 mutation | concentration not given |  | clinical benefit rate | 25%
COc1cc(NC(=O)CCN2CCC(OC(=O)Nc3ccccc3-c3ccccc3)CC2)c(Cl)cc1CNC[C@H](O)c1ccc(O)c2[nH]c(=O)ccc12 |  |  | COPD patients | inhaled, 200 µg twice daily, 12 h postdose, dosing day 1 | relative to: baseline | placebo-corrected trough FEV1 change | 136 mL
COC[C@@H](c1ccc(C(F)(F)F)cc1)N1CCN(C2(C)CCN(C(=O)c3c(C)ncnc3C)CC2)C[C@@H]1C |  |  | human, ART-naive HIV infected | dose not given, day 14, monotherapy |  | HIV RNA decrease | ≤ 1.6 log copies/mL
C=CC(=O)NC1CCN(c2ncc3ncnc(Nc4ccc(Oc5ccc6c(c5)ncn6C)c(C)c4)c3n2)CC1 |  |  | pretreated HER2-mutant NSCLC patients | 120 mg once daily |  | confirmed objective response rate | 71%
CC(C)(O/N=C(\C(=O)N[C@@H]1C(=O)N2C(C(=O)[O-])=C(C[n+]3ccccc3)CS[C@H]12)c1csc(N)n1)C(=O)O | Enterobacter cloacae |  | clinical isolate RKI-No_215/15 |  |  | MIC | ≤ 2 µg/mL
Nc1cc(C(F)(F)F)c(-c2nc(N3CCOCC3)nc(N3CCOCC3)n2)cn1 | SGK3 (Homo sapiens, UniProt Q96BR1) | enzyme activity |  | 10 µM | relative to: untreated | remaining activity | 89%
CC1(C)S[C@@H]2[C@H](NC(=O)[C@H](N)c3ccccc3)C(=O)N2[C@H]1C(=O)O | Enterobacter cloacae |  | clinical isolate RKI-No_146/09 |  |  | MIC | > 16 µg/mL
C[N+]1(C)CCC(OC(=O)C(O)(c2ccccc2)C2CCCC2)C1 (centres unmarked) |  |  | COPD patients | inhaled, 25 µg once daily, 24 h postdose, dosing day 7 | relative to: baseline | placebo-corrected trough FEV1 change | 89 mL

Excerpt of the above:
SMILES | target or system | assay | system | setting | how to read | endpoint | value
C[N+]1(C)CCC(OC(=O)C(O)(c2ccccc2)C2CCCC2)C1 (centres unmarked) |  |  | COPD patients | inhaled, 25 µg once daily, 24 h postdose, dosing day 7 | relative to: baseline | placebo-corrected trough FEV1 change | 89 mL
C=CC(=O)NC1CCN(c2ncc3ncnc(Nc4ccc(Oc5ccc6c(c5)ncn6C)c(C)c4)c3n2)CC1 |  |  | pretreated HER2-mutant NSCLC patients | 120 mg once daily |  | confirmed objective response rate | 71%
